Measured values gathered from unrelated publications.
Protocols differ between the studies behind these lines. Numbers after ± are the reported error.

Compound	assay	system	setting	how to read	measurement	value
O=c1[nH]c(Cc2ccccn2)nc2c1cnn2C1CCOCC1		healthy men, extensive metabolizers, plasma	oral, 350 mg single dose, tablet, geometric mean		AUC(0-inf)	7.98 µM·h
CC(C)(NC(=O)O[C@@H]1CN2CCC1CC2)c1csc(-c2ccc(F)cc2)n1		human, CSF	oral, 15 mg once daily, week 52, with: imiglucerase		CSF concentration	not detected
[123I]c1cncc(OC[C@@H]2CCN2)c1	SPECT	human, thalamus	intravenous bolus, 8.8 mCi	baseline: plasma	tissue/plasma ratio	15
[18F]CCCOc1ccccc1OC(c1ccccc1)C1CNCCO1 (centres unmarked)		1-octanol/phosphate buffer	pH 7.4		log P	2 to 2.47
CCC(C)n1ncn(-c2ccc(N3CCN(c4ccc(OCC5COC(Cn6cncn6)(c6ccc(Cl)cc6Cl)O5)cc4)CC3)cc2)c1=O (centres unmarked)		nude mouse, medulloblastoma allograft	oral, 75 mg/kg twice daily, alone or with arsenic trioxide		body weight	not toxic
CC(=O)[O][Pt]([NH2])([Cl])([Cl])([NH]C1CCCCC1)[O]C(C)=O	item: platinum	rhesus monkey, plasma ultrafiltrate	intravenous infusion, 6 mg/kg over 1 h		AUC(0-24h)	29.3 µM·h
CCN(CC)C(=S)SC		human	oral		oral clearance (CL/F)	0.58 L/h
CC[C@H](C)[C@H](NC(=O)[C@H](C)NC(=O)CNC(=O)[C@H](Cc1ccccc1)NC(=O)[C@H](CC(N)=O)NC(=O)[C@H](CC(N)=O)NC(=O)[C@H](CO)NC(=O)[C@H](CO)NC(=O)[C@H](Cc1c[nH]cn1)NC(=O)[C@@H](NC(=O)[C@H](CC(C)C)NC(=O)[C@H](Cc1ccccc1)NC(=O)[C@H](CC(N)=O)NC(=O)[C@H](C)NC(=O)[C@H](CC(C)C)NC(=O)[C@H](CCCNC(=N)N)NC(=O)[C@H](CCC(N)=O)NC(=O)[C@@H](NC(=O)[C@H](C)NC(=O)[C@@H]1CSSC[C@H](NC(=O)[C@@H](N)CCCCN)C(=O)N[C@@H](CC(N)=O)C(=O)N[C@@H]([C@@H](C)O)C(=O)N[C@@H](C)C(=O)N[C@@H]([C@@H](C)O)C(=O)N1)[C@@H](C)O)C(C)C)C(=O)N[C@@H](CC(C)C)C(=O)N[C@@H](CO)C(=O)N[C@@H](CO)C(=O)N[C@H](C(=O)N[C@@H](CC(N)=O)C(=O)N[C@H](C(=O)NCC(=O)N[C@@H](CO)C(=O)N[C@@H](CC(N)=O)C(=O)N[C@H](C(=O)N[C@@H](Cc1ccc(O)cc1)C(N)=O)[C@@H](C)O)C(C)C)[C@@H](C)O	thioflavin T fluorescence	phosphate buffer	16 µM, pH 7.4, 25 °C		half-time of amyloid formation	6.4 ± 1.6 h
COc1cc(C=CC(=O)C=Cc2cc(OC)c(OC)c(OC)c2)cc(OC)c1OC	fish embryo acute toxicity test	zebrafish (Danio rerio) embryos wild-type	immersion, up to 96 h, 0.1% DMSO		LC50	< 200 µM
CN[C@@](C)(C[18F])C(=O)O		SCID mouse U87 xenograft, kidney	15 min, post injection		tissue uptake	27 ± 4.8 %ID/g
C[C@H]1C(=O)O[C@@H]2CC[N+]3([O-])CC=C(COC(=O)[C@](C)(O)[C@]1(C)O)[C@H]23 (some centres unmarked)		human, whole blood	1000 ng/mL, 60 min, 37 °C		blood-to-plasma ratio	0.709

Some of these lines once more:
Compound	assay	system	setting	how to read	measurement	value
[18F]CCCOc1ccccc1OC(c1ccccc1)C1CNCCO1 (centres unmarked)		1-octanol/phosphate buffer	pH 7.4		log P	2 to 2.47
